Experimental data pooled from the literature.
Lines come from different studies, so protocols differ. Values joined by “and” are separate records of one study, mostly repeats; a detail may differ.
Chain of UniProt Q9R0P3 (whole entry, looked up): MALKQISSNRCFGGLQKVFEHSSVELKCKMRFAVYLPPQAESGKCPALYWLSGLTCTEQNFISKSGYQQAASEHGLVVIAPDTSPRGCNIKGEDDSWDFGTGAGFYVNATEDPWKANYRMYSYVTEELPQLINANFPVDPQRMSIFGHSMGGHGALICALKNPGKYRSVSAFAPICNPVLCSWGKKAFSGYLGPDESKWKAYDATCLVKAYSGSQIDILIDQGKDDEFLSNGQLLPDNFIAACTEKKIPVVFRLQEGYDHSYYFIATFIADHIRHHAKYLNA
Chain of UniProt Q9UH17 (whole entry, looked up): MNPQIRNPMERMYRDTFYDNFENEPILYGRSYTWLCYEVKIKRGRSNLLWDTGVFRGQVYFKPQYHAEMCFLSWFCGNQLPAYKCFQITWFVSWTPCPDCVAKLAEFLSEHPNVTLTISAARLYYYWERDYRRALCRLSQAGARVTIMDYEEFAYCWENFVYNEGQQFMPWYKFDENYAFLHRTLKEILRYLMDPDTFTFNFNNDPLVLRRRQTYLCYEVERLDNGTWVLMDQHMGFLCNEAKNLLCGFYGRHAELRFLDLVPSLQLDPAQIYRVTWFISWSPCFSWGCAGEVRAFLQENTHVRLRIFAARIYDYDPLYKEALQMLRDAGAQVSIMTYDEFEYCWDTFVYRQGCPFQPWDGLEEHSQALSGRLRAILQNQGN
Chain of UniProt Q9ULC6 (whole entry, looked up): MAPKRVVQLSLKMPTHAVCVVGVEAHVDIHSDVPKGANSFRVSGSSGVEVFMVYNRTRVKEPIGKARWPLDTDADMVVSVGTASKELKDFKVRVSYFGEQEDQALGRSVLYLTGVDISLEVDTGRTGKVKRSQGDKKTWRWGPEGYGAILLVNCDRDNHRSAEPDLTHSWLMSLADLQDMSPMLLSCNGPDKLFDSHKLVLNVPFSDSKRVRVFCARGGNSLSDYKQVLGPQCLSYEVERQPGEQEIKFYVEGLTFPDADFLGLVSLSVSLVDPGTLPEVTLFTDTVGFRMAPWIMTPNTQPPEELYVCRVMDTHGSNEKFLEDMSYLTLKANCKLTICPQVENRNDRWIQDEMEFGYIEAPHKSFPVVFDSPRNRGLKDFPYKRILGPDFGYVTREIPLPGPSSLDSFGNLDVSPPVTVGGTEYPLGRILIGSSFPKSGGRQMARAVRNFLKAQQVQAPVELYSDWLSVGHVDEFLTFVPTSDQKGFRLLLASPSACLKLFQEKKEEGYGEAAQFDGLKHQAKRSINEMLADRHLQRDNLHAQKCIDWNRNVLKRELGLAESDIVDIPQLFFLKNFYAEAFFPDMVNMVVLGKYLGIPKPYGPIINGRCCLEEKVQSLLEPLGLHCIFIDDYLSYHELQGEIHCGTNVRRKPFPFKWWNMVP
Chain of UniProt Q9C0K7 (whole entry, looked up): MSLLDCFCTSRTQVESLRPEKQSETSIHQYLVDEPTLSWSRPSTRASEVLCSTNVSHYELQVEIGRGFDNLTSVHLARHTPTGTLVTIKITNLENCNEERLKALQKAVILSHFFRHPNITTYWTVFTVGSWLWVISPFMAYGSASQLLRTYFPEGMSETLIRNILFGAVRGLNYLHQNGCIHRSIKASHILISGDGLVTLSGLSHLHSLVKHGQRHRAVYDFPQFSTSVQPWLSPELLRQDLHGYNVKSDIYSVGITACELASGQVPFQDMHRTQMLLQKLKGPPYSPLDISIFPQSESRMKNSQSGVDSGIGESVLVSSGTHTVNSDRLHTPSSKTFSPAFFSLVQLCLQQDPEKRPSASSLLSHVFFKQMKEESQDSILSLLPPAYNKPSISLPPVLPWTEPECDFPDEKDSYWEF
Chain of UniProt P08238 (whole entry, looked up): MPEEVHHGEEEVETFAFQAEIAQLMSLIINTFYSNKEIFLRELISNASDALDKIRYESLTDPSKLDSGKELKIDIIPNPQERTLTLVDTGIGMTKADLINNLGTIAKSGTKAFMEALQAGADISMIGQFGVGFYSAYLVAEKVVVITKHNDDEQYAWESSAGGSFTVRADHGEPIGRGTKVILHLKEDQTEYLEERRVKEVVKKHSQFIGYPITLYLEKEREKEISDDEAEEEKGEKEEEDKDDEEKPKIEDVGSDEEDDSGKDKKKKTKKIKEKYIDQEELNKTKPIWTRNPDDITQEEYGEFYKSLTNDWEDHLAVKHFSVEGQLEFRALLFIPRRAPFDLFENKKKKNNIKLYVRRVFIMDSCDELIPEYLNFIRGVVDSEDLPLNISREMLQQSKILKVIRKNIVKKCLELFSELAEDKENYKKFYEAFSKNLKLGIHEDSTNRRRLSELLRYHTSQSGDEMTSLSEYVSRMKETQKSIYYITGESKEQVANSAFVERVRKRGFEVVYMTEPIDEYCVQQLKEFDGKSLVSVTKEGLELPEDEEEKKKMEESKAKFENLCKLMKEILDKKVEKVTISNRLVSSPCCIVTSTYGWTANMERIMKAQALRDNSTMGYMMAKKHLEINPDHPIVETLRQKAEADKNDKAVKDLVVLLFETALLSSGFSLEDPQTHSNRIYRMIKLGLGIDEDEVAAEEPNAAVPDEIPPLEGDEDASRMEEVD
Chain of UniProt P33533 (whole entry, looked up): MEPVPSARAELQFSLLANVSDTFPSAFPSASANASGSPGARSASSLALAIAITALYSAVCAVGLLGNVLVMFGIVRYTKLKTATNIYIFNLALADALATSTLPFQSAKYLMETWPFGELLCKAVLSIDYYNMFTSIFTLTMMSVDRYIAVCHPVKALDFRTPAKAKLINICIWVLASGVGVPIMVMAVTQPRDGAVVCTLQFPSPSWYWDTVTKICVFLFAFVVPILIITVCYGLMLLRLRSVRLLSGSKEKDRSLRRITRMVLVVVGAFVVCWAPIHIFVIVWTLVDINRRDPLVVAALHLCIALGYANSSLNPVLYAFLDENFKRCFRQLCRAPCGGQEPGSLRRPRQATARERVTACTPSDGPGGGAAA
Chain of UniProt P07332 (whole entry, looked up): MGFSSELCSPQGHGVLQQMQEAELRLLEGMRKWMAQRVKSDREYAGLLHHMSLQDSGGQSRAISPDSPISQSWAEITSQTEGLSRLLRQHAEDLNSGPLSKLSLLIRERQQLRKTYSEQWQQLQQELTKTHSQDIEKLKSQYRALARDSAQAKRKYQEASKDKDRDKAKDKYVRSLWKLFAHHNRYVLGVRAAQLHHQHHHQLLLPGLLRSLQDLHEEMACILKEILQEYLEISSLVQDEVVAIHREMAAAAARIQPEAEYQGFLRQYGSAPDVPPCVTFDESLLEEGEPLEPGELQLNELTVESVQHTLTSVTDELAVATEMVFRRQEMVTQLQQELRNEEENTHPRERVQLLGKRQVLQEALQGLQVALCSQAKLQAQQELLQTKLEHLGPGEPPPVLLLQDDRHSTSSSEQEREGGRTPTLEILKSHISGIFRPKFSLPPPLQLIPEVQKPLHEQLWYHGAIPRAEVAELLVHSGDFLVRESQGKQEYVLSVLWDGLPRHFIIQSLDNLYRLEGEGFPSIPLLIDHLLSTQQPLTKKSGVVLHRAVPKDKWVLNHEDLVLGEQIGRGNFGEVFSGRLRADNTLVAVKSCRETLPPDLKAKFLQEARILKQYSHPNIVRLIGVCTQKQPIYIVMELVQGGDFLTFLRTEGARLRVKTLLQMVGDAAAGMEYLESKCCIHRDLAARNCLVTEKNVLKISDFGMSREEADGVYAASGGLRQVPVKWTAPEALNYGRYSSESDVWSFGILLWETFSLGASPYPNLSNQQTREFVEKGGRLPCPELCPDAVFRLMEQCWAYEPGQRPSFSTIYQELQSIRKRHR
Chain of UniProt Q8IWQ3 (whole entry, looked up): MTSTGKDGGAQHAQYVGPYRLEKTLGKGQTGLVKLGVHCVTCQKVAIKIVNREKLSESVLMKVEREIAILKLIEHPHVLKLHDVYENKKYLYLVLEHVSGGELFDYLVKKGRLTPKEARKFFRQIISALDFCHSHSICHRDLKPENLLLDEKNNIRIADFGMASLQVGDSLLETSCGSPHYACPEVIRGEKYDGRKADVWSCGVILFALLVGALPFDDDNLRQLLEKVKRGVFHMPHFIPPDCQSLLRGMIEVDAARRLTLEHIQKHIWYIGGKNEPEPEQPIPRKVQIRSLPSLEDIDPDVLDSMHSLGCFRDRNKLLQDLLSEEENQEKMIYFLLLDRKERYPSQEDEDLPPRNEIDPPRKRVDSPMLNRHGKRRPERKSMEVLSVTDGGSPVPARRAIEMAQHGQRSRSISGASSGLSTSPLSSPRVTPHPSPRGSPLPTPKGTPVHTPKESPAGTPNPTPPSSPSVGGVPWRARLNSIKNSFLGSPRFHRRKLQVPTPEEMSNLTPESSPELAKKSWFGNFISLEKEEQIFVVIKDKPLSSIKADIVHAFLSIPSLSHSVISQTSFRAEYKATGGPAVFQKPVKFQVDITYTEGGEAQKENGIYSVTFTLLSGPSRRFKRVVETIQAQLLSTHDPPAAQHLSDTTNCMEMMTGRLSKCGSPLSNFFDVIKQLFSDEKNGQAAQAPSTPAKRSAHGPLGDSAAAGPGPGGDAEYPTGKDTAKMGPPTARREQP

Compound	target	assay	test system	conditions	how to read	endpoint	result
CN(C)c1ncnc2c1ncn2[C@@H]1O[C@H](CO)[C@@H](NC(=O)[C@@H](N)CSC(c2ccccc2)c2ccccc2)[C@H]1O	Puromycin-sensitive aminopeptidase (Homo sapiens, UniProt P55786)	enzyme activity, fluorescence	–	together with: Ala-4-MNA substrate	baseline: APN IC50 over PSA IC50	selectivity ratio	57 fold
CN(C)[C@H]1C[C@@]23CC[C@@]4(O2)C(=CC[C@]2(C)[C@@H](c5ccc6ccncc6c5)CC[C@H]24)C=C3[C@@H](O)[C@@H]1O	STE20-related kinase adapter protein beta (Homo sapiens, UniProt Q9C0K7)	ATP probe labelling, inhibitor, KiNativ profiling	–	0.1 µM	–	inhibition	4.2%
CCCC[C@H]1CNCCN1C[C@@H]1CCCN1C[C@H](CC1CCCCC1)N1CCN(CCCC2CCCC2)[C@H]([C@@H](C)O)C1	Delta-type opioid receptor (Oprd1, Rattus norvegicus, UniProt P33533)	radioligand binding	rat brain membranes	500 nM, pH 7.5, 25 °C, together with: 2 nM [3H]DPDPE	–	remaining binding	97.8%
CC(C)[C@H]1NC(=O)C[C@H]2/C=C/CCSSC[C@@H](NC1=O)C(=O)N[C@H](Cc1cccc3ccccc13)C(=O)NCC(=O)O2	Inhibitor of nuclear factor kappa-B kinase subunit epsilon (IKBKE, Homo sapiens, UniProt Q14164)	enzyme activity, inhibitor	–	10 µM	–	inhibition	5.2%
CCCc1cc2cc(-n3cc(C)c4c3CC(C)(C)CC4=O)cc(N3CCC(O)CC3)c2c(=O)[nH]1	Heat shock protein HSP 90-beta (HSP90AB1, Homo sapiens, UniProt P08238)	fluorescence polarization	–	–	baseline: apparent KD Hsp90α over apparent KD HSP90AB1	selectivity ratio	> 174 fold
CC(C)CC(O)(CC(C)C)c1cn(C(=O)N2CCCC2)nn1	S-formylglutathione hydrolase (Esd, Mus musculus, UniProt Q9R0P3)	probe labelling, inhibitor, competitive ABPP-SILAC, measured: Esd	mouse T cells	concentration not given, 4 h, in situ, single peptide	baseline: treated over DMSO, lower = more inhibition	SILAC ratio	0.93 and 1.23 and 0.91 and 0.95 and 0.92 and 1 and 1.19 and 1.02
C=CC(=O)Nc1cc(-c2ccc(C(=O)N3CCCC(O)(CC)C3)cc2)ccc1F (centres unmarked)	DNA dC->dU-editing enzyme APOBEC-3B, C-terminal domain (Homo sapiens, UniProt Q9UH17)	covalent adduct, intact protein MS	–	3 h, 20-fold excess, 500 µM	–	unmodified protein	22% and 27%
O=C1NC(=O)c2c1c1cc(F)c[n+]3c1c1c2c2cc(O)ccc2[n]1[Ru-4]312([N]=C=S)[S+]3CC[S+]1CC[S+]2CC3 (centres unmarked)	Serine/threonine-protein kinase BRSK2 (BRSK2, Homo sapiens, UniProt Q8IWQ3)	enzyme activity	–	100 nM, human enzyme, together with: 10 µM ATP	baseline: untreated	remaining activity	32%
CS(C)(=O)=Nc1ccc(-c2ccc(-c3nc4cc(O[C@@H]5CO[C@H]6[C@@H]5OC[C@H]6O)[nH]c4cc3F)cc2)cc1	Tyrosine-protein kinase Fes/Fps (FES, Homo sapiens, UniProt P07332)	enzyme activity, inhibitor	–	10 µM	–	inhibition	-26%
COc1ccccc1-c1n[nH]c2nc(N[C@H]3CC[C@H](NS(=O)(=O)CC(C)C)CC3)ncc12	cdc2-related kinase 12 (Leishmania donovani, UniProt A0A3S7WQK2)	bead pull-down competition	Leishmania donovani extract	10 µM	baseline: vehicle	remaining binding	13%
N[C@H](C(=O)N1CCCC1)C1CCN(c2nccc3c(-c4ncc(Cl)cc4Cl)cccc23)CC1	Protein-arginine deiminase type-1 (PADI1, Homo sapiens, UniProt Q9ULC6)	enzyme activity	–	0.6144 µM, together with: Ca2+ 0.25 mM	–	kcat	0.0677 s⁻¹ and 0.0854 s⁻¹

Repeated from above:
Compound	target	assay	test system	conditions	how to read	endpoint	result
O=C1NC(=O)c2c1c1cc(F)c[n+]3c1c1c2c2cc(O)ccc2[n]1[Ru-4]312([N]=C=S)[S+]3CC[S+]1CC[S+]2CC3 (centres unmarked)	Serine/threonine-protein kinase BRSK2 (BRSK2, Homo sapiens, UniProt Q8IWQ3)	enzyme activity	–	100 nM, human enzyme, together with: 10 µM ATP	baseline: untreated	remaining activity	32%
